Assay results from different studies.
Compare with care: the assays were run in different laboratories. Numbers after ± are the reported error.
SLC6A3: Sodium-dependent dopamine transporter (SLC6A3, Homo sapiens, UniProt Q01959)

SMILES	target	assay	system	setting	scale	IC50
O=C(CCCCC1CCSS1)NCCC(=O)NC(Cc1cnc[nH]1)C(=O)O (racemic)	Transient receptor potential cation channel subfamily A member 1 (Trpa1, Mus musculus, UniProt Q8BLA8)	ion current, patch clamp				10.3 µM
CC[C@H](C)[C@H](NC(=O)[C@H](CC(C)C)NC(=O)[C@@H]1CCCN1C(=O)[C@H](CC(C)C)NC(=O)[C@@H]1CCCN1C(C)=O)C(=O)N[C@@H](Cc1ccccc1)C(=O)N[C@@H](CCC(N)=O)C(=O)N[C@H](C(=O)N[C@H](C(=O)N1CCC[C@H]1C(=O)N[C@@H](CC(C)C)C(=O)N[C@@H](CC(N)=O)C(=O)N[C@@H](CC(C)C)C(=O)N[C@H](C(=O)N[C@@H](CCC(N)=O)C(=O)N[C@@H](Cc1c[nH]c2ccccc12)C(=O)N[C@@H](CC(C)C)C(=O)N[C@@H](CCSC)C(=O)N[C@H](C(=O)N[C@@H](CC(C)C)C(=O)O)C(C)C)[C@@H](C)O)[C@@H](C)O)[C@@H](C)CC	H2-Aa/H2-Ab1 (Mus musculus, UniProt P01910+P06343)	binding, DELFIA competition		pH 7.0, added: biotinylated HEL peptide		8.09 ± 1.94 µM
O=C(NCCCN1CCC(Cc2ccccc2)CC1)c1ccc(-c2ccccc2)cc1	SLC6A3	transporter uptake, inhibitor, radiometric				> 10 µM
CN(C)c1ccc2c(c1)C(=O)N(CCS)C2=O	Metallo-beta-lactamase VIM-2 (VIM-2, Escherichia coli, UniProt Q5U7L7)	enzyme activity, inhibitor		pH 7		0.24 µM
Cc1cc2c(NC(=O)N[C@@H]3CC(C)(C)Oc4c(OC(F)(F)F)cccc43)cccc2cn1	Transient receptor potential cation channel subfamily M member 8 (TRPM8, Homo sapiens, UniProt Q7Z2W7)	cell-based				25 µM
N=C(NCCCC(N)C(N)=O)NCCSCC1OC(n2cnc3c(N)ncnc32)C(O)C1O (centres unmarked)	Histone-lysine N-methyltransferase SETD7 (SETD7, Homo sapiens, UniProt Q8WTS6)	enzyme activity, inhibitor, fluorescence				> 100 µM
CC(C)[C@H](NC(=O)[C@H](C)NC(=O)[C@H](Cc1c[nH]c2ccccc12)NC(=O)[C@H](Cc1c[nH]cn1)NC(=O)[C@H](N)Cc1ccccc1)C(=O)N[C@H](C)C(=O)N[C@@H](Cc1c[nH]cn1)C(=O)N1CCC[C@@H]1CN[C@@H](Cc1ccccc1)C(N)=O	Gastrin-releasing peptide receptor (GRPR, Homo sapiens, UniProt P30550)	inositol phosphate generation, antagonist	HuTu80	added: GRP		0.025 ± 0.001 µM
C=CC(=O)N1[C@@H](c2ccc3c(c2)OCO3)c2[nH]c3ccccc3c2C[C@@H]1C(=O)N1CCOCC1	Splicing factor 3B subunit 1 (Homo sapiens, UniProt O75533)	inhibitor				5.2 µM
CC(=O)c1ccc(-c2nn(C(=O)c3ccncc3)cc2C(=O)O)cc1	alpha-amylase	inhibitor				165 mg/L
COc1ccc(NCc2cc(=O)c(O)c[nH]2)cc1	PPO3 (Agaricus bisporus, UniProt C7FF04)	enzyme activity, inhibitor, absorbance		pH 6.5		657 µM
COC(=O)[C@H](CC(C)C)NC(=O)[C@@H]1CCCN1C(=O)[C@@H](NC(=O)[C@H](CCC(=O)C=[N+]=[N-])NC(=O)OCc1ccccc1)C(C)C	Protein-glutamine gamma-glutamyltransferase K (Homo sapiens, UniProt P22735)	inhibitor			relative to: TG2	increased
Cc1nc(Nc2ncc(C(=O)Nc3c(C)cccc3Cl)s2)cc(N2CCN(CCOC(=O)CCCCCCCCCCN)CC2)n1	Tyrosine-protein kinase CSK (CSK, Homo sapiens, UniProt P41240)	enzyme activity, inhibitor				0.03 µM
CN(C)CCN(Cc1ccncc1)Cc1c(Cl)cccc1Cl	SLC6A3	transporter uptake, inhibitor, radiometric				> 20 µM
N#C/C(C(=O)c1ccc(Cl)cc1Cl)=C1\NC(=O)c2ccccc2N1	Cytoplasmic dynein 1 heavy chain 1 (DYNC1H1, Homo sapiens, UniProt Q14204)	ATPase activity, inhibitor				52 µM

A few entries again:
SMILES	target	assay	system	setting	scale	IC50
O=C(CCCCC1CCSS1)NCCC(=O)NC(Cc1cnc[nH]1)C(=O)O (racemic)	Transient receptor potential cation channel subfamily A member 1 (Trpa1, Mus musculus, UniProt Q8BLA8)	ion current, patch clamp				10.3 µM
